Published values gathered from unrelated publications.
Each line is one published result; not all experiments were run side by side.
Method: steady-state kinetics
B1: enzyme S252E (Schizosaccharomyces pombe, UniProt P78804); chain MSTPYEPEFQQAYKEIVGSIESSKLFEVHPELKRVLPIISIPERVLEFRVTWEDDKGNCRVNTGYRVQFNSALGPYKGGLRFHPSVNLSILKFLGFEQIFKNALTGLPMGGGKGGSDFDPKGKSDNEIRRFSQAFMRQLFRYIGPQTDVPAGDIGVTGFVVMHMFGEYKRLRNEYSGVVTGKHMLTGGSNIRPEATGYGVVYYVKHMIEHRTKGAETLKGKRVAISGSGNVAQYAALKCIQEGAIVKSISDEKGVLIAKTAEGLVPEEIHEIMALKEKRASIADSASLCKKHHYIAGARPWTNVGEIDIALPCATQNEVSGEEAAALIKQGCRYVAEGSNMGSSAEAVEVFEKSRASGEGCWLAPGKAANAGGVAVSGLEMAQNAQFSTWTHAEVDAKLAGIMQNIFEQSTDVASKYCDSGSNNIPSLVDGANIAGFLKVATAMQAVGDWW
B2: enzyme (Castanea crenata, UniProt P82859); chain MEEFLTVGLWGGEGGDRWSFVVNNGGIIGMEIVHANGIASITFKCGDEYGVLQHSRKFGGTGEGWKTDKISLNWPEEYLTSISGTVADLWQHIIIRSISFKTNKGTEYGPYGVVTGQPFSYSTEGGVIVGFHGRSGTLLDAIGAYVKIPQKKDNTLKMALPVPRGPGPWGGHGGMEWDDGVFPAIRELHLYVGDSVIHAIRVSYQSKDGEPLLSPKHGGEGGEPIDPIKLEVSKEFLIRIAGFYGPVEGSGSFKALRSITFYTNKAKYGPYGDEIGQAFTSSVAPGRVVGFHGRSGAYLDAIGVHMEYF
B3: LAC4 (Kluyveromyces lactis, UniProt P00723); chain MSCLIPENLRNPKKVHENRLPTRAYYYDQDIFESLNGPWAFALFDAPLDAPDAKNLDWETAKKWSTISVPSHWELQEDWKYGKPIYTNVQYPIPIDIPNPPTVNPTGVYARTFELDSKSIESFEHRLRFEGVDNCYELYVNGQYVGFNKGSRNGAEFDIQKYVSEGENLVVVKVFKWSDSTYIEDQDQWWLSGIYRDVSLLKLPKKAHIEDVRVTTTFVDSQYQDAELSVKVDVQGSSYDHINFTLYEPEDGSKVYDASSLLNEENGNTTFSTKEFISFSTKKNEETAFKINVKAPEHWTAENPTLYKYQLDLIGSDGSVIQSIKHHVGFRQVELKDGNITVNGKDILFRGVNRHDHHPRFGRAVPLDFVVRDLILMKKFNINAVRNSHYPNHPKVYDLFDKLGFWVIDEADLETHGVQEPFNRHTNLEAEYPDTKNKLYDVNAHYLSDNPEYEVAYLDRASQLVLRDVNHPSIIIWSLGNEACYGRNHKAMYKLIKQLDPTRLVHYEGDLNALSADIFSFMYPTFEIMERWRKNHTDENGKFEKPLILCEYGHAMGNGPGSLKEYQELFYKEKFYQGGFIWEWANHGIEFEDVSTADGKLHKAYAYGGDFKEEVHDGVFIMDGLCNSEHNPTPGLVEYKKVIEPVHIKIAHGSVTITNKHDFITTDHLLFIDKDTGKTIDVPSLKPEESVTIPSDTTYVVAVLKDDAGVLKAGHEIAWGQAELPLKVPDFVTETAEKAAKINDGKRYVSVESSGLHFILDKLLGKIESLKVKGKEISSKFEGSSITFWRPPTNNDEPRDFKNWKKYNIDLMKQNIHGVSVEKGSNGSLAVVTVNSRISPVVFYYGFETVQKYTIFANKINLNTSMKLTGEYQPPDFPRVGYEFWLGDSYESFEWLGRGPGESYPDKKESQRFGLYDSKDVEEFVYDYPQENGNHTDTHFLNIKFEGAGKLSIFQKEKPFNFKISDEYGVDEAAHACDVKRYGRHYLRLDHAIHGVGSEACGPAVLDQYRLKAQDFNFEFDLAFE
B4: enzyme H47Q (Pseudomonas putida, UniProt Q88FY2); chain MRGRQKIAIVGAGLGGAAAATLLQQAGFDVEVFEQAPAFTRLGAGIQIGPNVMKIFRRMGLEQKLELMGSHPDFWFSRDGNTGDYLSRIPLGEFARREYGAAYITIHRGDLHALQIEAIQPGTVHFGKRLEKIVDEGDQVRLDFADGTHTVADIVIGADGIHSKIREELLGAEAPIYSGWVAHRALIRGVNLAQHADVFEPCVKWWSEDRHMMVYYTTGKRDEYYFVTGVPHEAWDFQGAFVDSSQEEMRAAFEGYHPTVQKLIDATESITKWPLRNRNPLPLWSRGRLVLLGDACHPMKPHMAQGACMAIEDAAMLTRCLQETGLSDHRTAFALYEANRKERASQVQSVSNANTWLYSQEDPAWVYGYDLYGQQLESGEAA
B5: enzyme (UniProt A0A6P1C6J0); chain PEFDITVVIPTFKAEKTVGQCLESVLSQQGVSTEIIVVDGGSPDATISIVQSFSSTNLTIISEPDRGIYDAINKGVSRAQGGMIGVLGADDVYKPNVLSVVKENASRGVEIVAGLTLIDGQLRADEQYRPAALISGIPFGHNAMFASQEAYRKVGLYDLAYRICADAEWVHRAIKSDISCRKVEQVFVEFGTEGTSSTNPEEIIAEACSVIQRNFPFLLKEEAKYLLYGVRGWGETSRIEQILRKYGHESVLFVTALQEAFPAVET
B6: enzyme I20A (Nitrosopumilus maritimus, UniProt A9A5X4); chain MDSQKFDSIIFDCDGVLVDATQSYDKTIDKTCRYVLKEFAKIDSITIDHKIIDGFKSSGGFNDEVDLVYAAILSLYTANKLNKKPSEFIYDVISNTDKTGIRSVQSYLESIYDVSEFLSKLGSLGDRHNNPVYSIFDQFFFGPELYGKLFDKQSKFSEEGMISNDKVILSVSLLETLQKEFGKKIAVVTGRGIESIRYSLKDMMDYFDTKNSAFLEDEPRELAKPNPATLIRAIQSMESKNCLYVGDSMEDYMMAKDAAQAGHSTTFCAIVGTSTNPEDRRKLFADSGVEMILESINDIPKVLNLV
B7: enzyme (Sulfolobus acidocaldarius, UniProt Q4J7B6); chain MKGILIAFEGIDGSGKSSQASLLKSWLSKRRYTFITEWNSSEWIHDIIKEAKKKNLLTPLTFSLIHATDFADRYEKYILPMLKCGFVVIADRYIYTAYARDSVRGVDIEWVKKLYSFAVKPDITFYIRVPSEVALKRLKSSRRQIKPTEAGADVFPNLTPEEGFIKYQSSIIEVYDRIAEENNFVVVDGTKDPRQVQSEIRGKVMELWRREGL
B8: enzyme (Haliscomenobacter hydrossis, UniProt F4KU78); chain MKQKPAFIPYAGAQFEPEEMLSKSAEYYQFMDHRRTVREFSNRAIPLEVIENIVMTASTAPSGAHKQPWTFVVVSDPQIKAKIRQAAEKEEFESYNGRMSNEWLEDLQPFGTDWHKPFLEIAPYLIVVFRKAYDVLPDGTQRKNYYVQESVGIACGFLLAAIHQAGLVALTHTPSPMNFLQKILQRPENERPFLLVPVGYPAEGAMVPDLQRKDKAAVMVVY
B9: enzyme (Toxoplasma gondii, UniProt S8EY38); chain ARKTNIEAYRDGLKLKTEEDFFACDRQYVCQNYAPVPVVISKGKGARVWDINGNEYYDFLAGVSSLSQGHCHPRVIAALCRQAERLTLTLRAFGNDVTGPACRFMAEMFGYDRVLLMNTGAEAGESALKIARKWAYEVKEIPPDSAKVILCNNNYWGRTITACSSSTTFDCYNNFGPFTPGFELIDYDDVGALEEALKDPNVAAFFVEPIQGEGGVNVPKPGYLKRAHELCRSKNVLLIVDEIQTGLCRTGRLLAADHDEVHPDILLLGKSLSAGVVPISAVMGRADVMDVLKPGTHGSTFGGNPLACAVAVEALTVLKDEKLADRAERLGAQFRDCLRRELYGKVPWIKEIRGRGLLNAVEVDSDAIDPNDVVMKLKENGILSKPTRGRVMRFIPPLVITDEEHRDATTRIIKSFLAVEEERKK
B10: enzyme C429A (Methanosarcina mazei, UniProt Q8PVB1); chain MSEQRSVPLREHLLALKPCRHGGLIQETSETYGIPENEILDFSANFNPLGSPFDYPENGLNFEDIIKKSCGKLLEYPDNRYVEFREAAARFVGLGVTPQSIVPGNGSTEIVRLVVESVIEKGDKVLLPWPTFGEYEMQCRITGAEPVCPSQEEVNTLPDEVLEEAKILFICNPNNPTGKLRTREELKVLAERCREHKTLLYVDEAFIELSDPSQSVADLPAENNYVFVMRSLTKDFAIPGIRMGFGIAPPAMADILNTARLSWNLGAIANNTGIALLNIEGGIDSPYLKKAREMILKEGETLKAKIDRIRGFEAGEVNVNFILVDVSKFMLNSSELTARLAARGVLVRDCVSFHGLGKNYIRVAVRTEKENDRLIAAIGDVITEWGREQAKNELQHVIEKASEEGIGGRKTCEYYPCHFEGQNCTFCFAPFYPCENEKTGGKWIQSSRGGRVWSCVDCHLVHKKEIAQKILDCLMHEGDTDELVKVAWKEVMEPIL

B1 (enzyme S252E)
Km (NC(=O)c1ccc[n+]([C@@H]2O[C@H](COP(=O)(O)OP(=O)(O)OC[C@H]3O[C@@H](n4cnc5c(N)ncnc54)[C@H](O)[C@@H]3O)[C@@H](O)[C@H]2O)c1; pH 7, 30 °C, apparent): 1900 µM

SEN1 (Saccharomyces cerevisiae, UniProt Q00416)
Km (Nc1ncnc2c1ncn2[C@@H]1O[C@H](COP(=O)(O)OP(=O)(O)OP(=O)(O)O)[C@@H](O)[C@H]1O; pH 7.5, 28 °C): 26 µM

B2 (enzyme)
Km (CCCCCCCCCCCCCCCC(=O)Oc1ccc([N+](=O)[O-])cc1; pH 8, 35 °C): 110 µM

B3 (LAC4)
Km (O=[N+]([O-])c1ccccc1O[C@@H]1O[C@H](CO)[C@H](O)[C@H](O)[C@H]1O; pH 6.5, 30 °C): 1050 µM

acsA D449E/I222V (Pseudomonas chlororaphis)
Km (CCCC(=O)O; pH 7): 120 µM

B4 (enzyme H47Q)
Km (NC(=O)C1=CN([C@@H]2O[C@H](COP(=O)(O)OP(=O)(O)OC[C@H]3O[C@@H](n4cnc5c(N)ncnc54)[C@H](O)[C@@H]3O)[C@@H](O)[C@H]2O)C=CC1; with: FAD): 18 µM

enzyme (Staphylococcus epidermidis, UniProt Q9FD73)
Km (Nc1ncnc2c1ncn2[C@@H]1O[C@H](COP(=O)(O)OP(=O)(O)OP(=O)(O)O)[C@@H](O)[C@H]1O; pH 7, 30 °C): 26.7 µM

B5 (enzyme)
Km (C[C@@H]1O[C@H](OP(=O)(O)OP(=O)(O)OC[C@H]2O[C@@H](n3cnc4c(=O)[nH]c(N)nc43)[C@H](O)[C@@H]2O)[C@@H](O)[C@H](O)[C@@H]1O; pH 7.5, 25 °C, apparent): 40 µM

mdlD (Pseudomonas putida, UniProt Q84DC3)
Km (NC(=O)c1ccc[n+]([C@@H]2O[C@H](COP(=O)(O)OP(=O)(O)OC[C@H]3O[C@@H](n4cnc5c(N)ncnc54)[C@H](O)[C@@H]3O)[C@@H](O)[C@H]2O)c1; pH 7.4, 30 °C, cofactor varied): 620 µM

enzyme (Arabidopsis thaliana, UniProt Q9FFF6)
Km (CC/C=C\C[C@@H]1C(=O)CC[C@@H]1CC(=O)O; pH 7.5, 20 °C): 1.14 µM

B6 (enzyme I20A)
Km (N[C@H](COP(=O)(O)O)Cc1c[nH]cn1; pH 7.8, 25 °C): 58 µM

enzyme (Mycobacteroides abscessus, UniProt B1MGE0)
Km (C/C(=C\C=C(/O)C(=O)O)C(=O)CC[C@@H]1C(=O)CC[C@]2(C)C(=O)CC[C@@H]12; pH 7.5, 25 °C): 8 µM

B7 (enzyme)
Km (Nc1ncnc2c1ncn2[C@@H]1O[C@H](COP(=O)(O)OP(=O)(O)OP(=O)(O)O)[C@@H](O)[C@H]1O; pH 7.4, 70 °C): 1220 µM

HNL C81L/E79H/G176S/H103V/K236M/N104A/T11G (Hevea brasiliensis)
Km (CC(=O)Oc1ccc([N+](=O)[O-])cc1; pH 7.2, 21 °C): 30 µM

B8 (enzyme)
Km (N[C@@H](Cc1ccc(O)c(I)c1)C(=O)O; pH 7.4, 25 °C, with: dithionite): 14 µM

B9 (enzyme)
Km (NCCC[C@H](N)C(=O)O; pH 8, 37 °C): 31000 µM

enzyme (Oryctolagus cuniculus, UniProt G1T386)
Km (Nc1nc2nc[nH]c2c(=O)[nH]1; pH 7.4, 25 °C): 5.5 µM

enzyme (Pseudomonas aeruginosa, UniProt Q9I5Q5)
Km (Nc1ncnc2c1ncn2[C@@H]1O[C@H](COP(=O)(O)OP(=O)(O)OP(=O)(O)O)[C@@H](O)[C@H]1O; pH 7.5, apparent, with: MgCl2): 96 µM

bglA (Acetivibrio thermocellus, UniProt P26208)
Km (O=[N+]([O-])c1ccc(O[C@@H]2OC[C@H](O)[C@H](O)[C@H]2O)cc1; pH 5.5, 60 °C): 1510 µM

enzyme (UniProt A0A063Y6V3)
Km (NC(=O)C1=CN([C@@H]2O[C@H](COP(=O)(O)OP(=O)(O)OC[C@H]3O[C@@H](n4cnc5c(N)ncnc54)[C@H](OP(=O)(O)O)[C@@H]3O)[C@@H](O)[C@H]2O)C=CC1; pH 7, 30 °C, cofactor varied): 22.3 µM

B10 (enzyme C429A)
Km (Nc1ncnc2c1ncn2[C@@H]1O[C@H](COP(=O)(O)OP(=O)(O)OP(=O)(O)O)[C@@H](O)[C@H]1O; pH 8.5, 25 °C, apparent, anoxic, with: L-Thr 10 mM): 118 µM
